# Measured values collected from several papers.
# Numbered parts are unrelated; each lists some results of a single study. Positions count from the first letter of the parent shown.
# Chain of UniProt Q06418 (whole entry, looked up): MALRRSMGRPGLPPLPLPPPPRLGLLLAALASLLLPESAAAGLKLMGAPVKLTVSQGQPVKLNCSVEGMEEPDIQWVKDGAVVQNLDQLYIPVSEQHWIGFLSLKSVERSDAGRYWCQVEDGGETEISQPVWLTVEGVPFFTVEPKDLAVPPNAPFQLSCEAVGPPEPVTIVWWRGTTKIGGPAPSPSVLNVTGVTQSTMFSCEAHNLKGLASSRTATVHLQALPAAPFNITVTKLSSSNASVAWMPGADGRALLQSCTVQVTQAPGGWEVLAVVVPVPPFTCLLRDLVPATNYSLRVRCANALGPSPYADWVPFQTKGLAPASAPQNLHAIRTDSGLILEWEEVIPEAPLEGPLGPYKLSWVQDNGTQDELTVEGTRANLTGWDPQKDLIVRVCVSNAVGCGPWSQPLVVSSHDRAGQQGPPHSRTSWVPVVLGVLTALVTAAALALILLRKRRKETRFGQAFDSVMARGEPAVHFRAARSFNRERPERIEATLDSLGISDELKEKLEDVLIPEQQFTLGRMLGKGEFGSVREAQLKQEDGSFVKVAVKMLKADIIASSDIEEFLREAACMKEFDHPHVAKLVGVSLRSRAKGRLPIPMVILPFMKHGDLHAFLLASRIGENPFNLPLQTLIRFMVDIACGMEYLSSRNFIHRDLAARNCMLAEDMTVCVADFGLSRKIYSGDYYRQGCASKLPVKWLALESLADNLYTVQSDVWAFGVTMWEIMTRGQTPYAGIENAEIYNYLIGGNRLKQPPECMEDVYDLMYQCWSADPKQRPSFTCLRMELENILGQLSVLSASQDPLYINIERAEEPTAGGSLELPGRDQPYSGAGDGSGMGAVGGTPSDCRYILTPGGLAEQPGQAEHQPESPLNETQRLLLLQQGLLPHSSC
# Chain of UniProt P48730 (whole entry, looked up): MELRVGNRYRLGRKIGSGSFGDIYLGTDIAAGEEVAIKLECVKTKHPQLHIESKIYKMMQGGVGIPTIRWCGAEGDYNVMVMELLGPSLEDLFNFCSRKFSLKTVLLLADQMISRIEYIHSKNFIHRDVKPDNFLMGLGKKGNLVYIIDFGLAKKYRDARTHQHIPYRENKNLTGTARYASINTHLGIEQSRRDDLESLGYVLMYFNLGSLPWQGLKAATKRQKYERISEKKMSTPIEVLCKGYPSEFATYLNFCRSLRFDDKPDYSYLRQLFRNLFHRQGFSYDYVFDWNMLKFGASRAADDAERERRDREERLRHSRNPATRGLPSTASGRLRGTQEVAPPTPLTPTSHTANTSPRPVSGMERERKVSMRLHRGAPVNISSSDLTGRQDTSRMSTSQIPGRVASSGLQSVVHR
# Chain of UniProt Q9H0K1 (whole entry, looked up): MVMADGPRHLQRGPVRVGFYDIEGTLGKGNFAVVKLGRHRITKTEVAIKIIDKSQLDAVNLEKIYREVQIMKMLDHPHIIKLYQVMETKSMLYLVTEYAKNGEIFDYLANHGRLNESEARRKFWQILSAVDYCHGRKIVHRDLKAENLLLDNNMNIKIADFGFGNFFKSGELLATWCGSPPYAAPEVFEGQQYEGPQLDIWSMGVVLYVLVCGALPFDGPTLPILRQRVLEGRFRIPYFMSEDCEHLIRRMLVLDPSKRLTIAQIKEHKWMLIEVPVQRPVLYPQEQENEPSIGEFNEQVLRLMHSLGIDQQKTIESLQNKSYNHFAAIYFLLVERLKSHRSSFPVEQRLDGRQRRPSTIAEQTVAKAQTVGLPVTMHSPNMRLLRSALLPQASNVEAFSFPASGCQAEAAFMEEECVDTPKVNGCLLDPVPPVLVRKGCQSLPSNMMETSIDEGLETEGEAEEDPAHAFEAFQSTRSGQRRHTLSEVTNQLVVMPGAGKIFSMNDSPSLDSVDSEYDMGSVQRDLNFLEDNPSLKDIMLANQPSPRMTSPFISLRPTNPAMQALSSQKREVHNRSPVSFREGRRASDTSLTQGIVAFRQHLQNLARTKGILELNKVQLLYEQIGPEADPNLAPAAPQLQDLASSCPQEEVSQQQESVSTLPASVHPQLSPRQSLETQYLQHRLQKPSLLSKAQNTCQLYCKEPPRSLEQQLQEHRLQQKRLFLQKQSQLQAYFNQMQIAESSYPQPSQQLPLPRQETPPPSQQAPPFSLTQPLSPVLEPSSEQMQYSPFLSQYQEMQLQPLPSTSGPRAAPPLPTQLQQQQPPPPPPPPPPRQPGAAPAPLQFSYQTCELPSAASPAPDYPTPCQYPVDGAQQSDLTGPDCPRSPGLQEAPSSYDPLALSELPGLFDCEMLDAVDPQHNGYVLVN

# Sample 1 — observed: enzyme activity; mode: inhibitor; concentration: 0.5 µM; baseline: control
# Compound: COC[C@H]1OC(=O)c2coc3c2[C@@]1(C)C1=C(C3=O)[C@@H]2CCC(=O)[C@@]2(C)C[C@H]1OC(C)=O
target,remaining activity [%]
"CSNK1D (Homo sapiens, UniProt P48730)",96.6
"TYRO3 (Homo sapiens, UniProt Q06418)",107
"Cyclin-dependent kinase 2, with cyclin E (CDK2, Homo sapiens, UniProt P24941)",105
"SIK2 (Homo sapiens, UniProt Q9H0K1)",96.8

# Sample 2 — technique: EMSA with sequencing; form: double-stranded DNA, one strand shown; sample: in vitro; concentration: 10 and 20 nM; baseline: negative control set to 0; reading: higher = stronger binding
# Target: Hepatocyte nuclear factor 3-alpha (Foxa1, Mus musculus, UniProt P35582, residues 1-468, full length assumed)
# Setting: whole designed probe, mean of two concentrations, ends assumed
# All sequences stand within: GTGAGCGGTGCCCATTGATGGGGAAC … TTTCACTGGGATCGTGGGGAC
# Construct (chain): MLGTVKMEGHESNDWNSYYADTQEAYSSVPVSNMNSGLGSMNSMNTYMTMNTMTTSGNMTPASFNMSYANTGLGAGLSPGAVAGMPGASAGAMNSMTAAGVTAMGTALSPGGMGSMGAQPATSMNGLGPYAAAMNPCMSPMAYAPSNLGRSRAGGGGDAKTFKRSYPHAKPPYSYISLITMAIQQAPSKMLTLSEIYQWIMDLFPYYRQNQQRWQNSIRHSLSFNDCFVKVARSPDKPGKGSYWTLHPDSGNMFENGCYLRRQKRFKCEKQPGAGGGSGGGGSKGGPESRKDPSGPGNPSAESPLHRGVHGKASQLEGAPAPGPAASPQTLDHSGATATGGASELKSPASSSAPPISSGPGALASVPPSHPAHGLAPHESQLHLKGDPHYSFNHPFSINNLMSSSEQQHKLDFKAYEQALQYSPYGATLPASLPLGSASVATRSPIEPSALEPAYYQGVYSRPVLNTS
Sequence,normalised bound fraction
TGCTTGTGTTTCAGTAAAAATAGACTAGTACGTCTAAACCAACCTCATTTATTTTTAAGTAATTTCTTCTGAGCAAGTGATAAACTGATACATGTTTACACTGAACTCTTTCTTAGCAATAAGACAATAAATATTCTTTTAAAAAAACACGTTTAAAGTGTTTCACTAAATGTTTTCTCATTATTTGTAACAA,0.155 ratio
GTGTGTGCGCGCGCGTGTGTGTGTGTTTTCTTAAGCCGGGCTATTCAAACCCTGCTGCAATTCTCCCAATGATTCATGGTAAAGGGGCACGTTTATTTGCATTAGATTGCAAACGGCGCGGTTCGCGCACTTTGCAGCCGGCCCGGTGGAGCAGCCAGTGCCGGATTTCTCCCTTTTTTTGCAGATCTGCAGA,0.446 ratio
TTTAGTACTTTAAAATTTTCCAAAGTGCTTTTCCTTGTCTTATTATAACAATTGCCAGCATTTGGTCAGCACTCTAGAGGTTATAAAGTACTTTGTGTACACTGTCTCCTAAGTCAACTCAGCAATGCTGTGGGTTATTATTACTTGACTCATTTTGCAGGCAAGGAAGCTAAGGTTCAGGAATGCTAAATGA,0.251 ratio
CACCAAACTTGACCTGCTCTCCACCCTCGGATCTAGTCAGGCTAGACAACACTGCTGTCAACAAATTTTAGGATCTCTGTGGCTGAACCTGGAAGATTACTTTTCATGCACACAGAGGCTACTGTGGATCTAGAGCCTCTCCATGGAAGCTCCCTGCAGATGGGTGGCTCCAGTCTCCAAGGGCTTCCATCTT,-0.0245 ratio
CATTAGAGTCAAAGTTGTTAAGGGGAGCTAGTCATAGCTACCACGTGGCCAGGCATGTGGAACCAGATGAATCATCAACACCAGGCACACATCTATTTACTTTAAATAATGCTGACAACCTAGTTCATAGTGACACACTACTTGAGATATATAGAATAACATTATTACCCAGTAAGTATGTGAACATTCCGAT,0.383 ratio
ATCTTCCCCCTCTTCCTTGCCCCACCAGCTCACCTTCCCGGGTATCTGCAAATAAGTATTTATTTTCAAGCCGGCATTCGTTAACCCTCTTCTGGCGCAAACTGCCAAAGTAAACAGATCTAACATGGTCCTTTGGCGACGCCAGGCTCCGGGAGAGCAAAGCACCGTGTCAGGGCCATGATCCGGGGTGGCC,0.445 ratio
TCTAATCCATACCAAGGATTCCCATGGGGAAACTGTTATCTCTCAACTCAGTGAGGGCTATTGACAAAGACCAGTGCTCTTTCTTCTCTGTAGGTAAACAGAGACTCTTGCAAGCCTGAGGGAGAAAATACAGTATATCTAAGAGTTAAGACCTCCCAGCTTCACATTCTGTTATAGCAGCTGCTTCATGCCA,0.247 ratio
GCCTAGCACTGCTGTGTGTGCTTGCTATAGGTGTATCGTCTGATGCACATGAAAGCGGACCTAGTTAACACCCTTTGGGACAGGAGAGTTTATGTTTACTTTGCCTTGAATGGTTCTCATTCTAACCAGCGAACTCTAACTTTTTGTATATAATGATACTCTTTTAAAAAATCCTGTAACATGGAGGGTAAAG,0.42 ratio

# Sample 3 — target: UBE2A UBC core domain (UniProt P49459); technique: yeast two-hybrid; sample: yeast; setting: mostly zero background; baseline: not given; reading: higher = stronger interaction
# Chain of UniProt P49459 (whole entry, looked up): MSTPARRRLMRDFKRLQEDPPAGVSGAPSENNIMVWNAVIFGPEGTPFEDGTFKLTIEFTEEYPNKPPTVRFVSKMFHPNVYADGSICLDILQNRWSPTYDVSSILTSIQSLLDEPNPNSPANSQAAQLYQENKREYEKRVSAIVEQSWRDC
# B1: PEX2 RING domain (UniProt P28328); chain DNTLATSGKECALCGEWPTMPHTIGCEHIFCYFCAKSSFLFDVYFTCPKCGTEVHSLQPLK
# B2: TRIM52 RING domain (UniProt Q96A61); chain PMQTLQEEAVCAICLDYFKDPVSISCGHNFCRGCVTQLWSKEDEEDQNEEEDEWEEEEDEEAV
# B3: RNF175 RING domain (UniProt Q8N4F7); chain LPTRSLSDNICAVCGQKIIVELDEEGLIENTYQLSCNHVFHEFCIRGWCIVGKKQTCPYCKEKVDLKRMIS
# B4: PHF7 RING domain (UniProt Q9BWX1); chain IQHGHVGEESCILCCEDLSQQSVENIQSPCCSQAIYHRKCIQKYAHTSAKHFFKCPQCNNRKEFPQEML
# B5: RFPL2 RING domain (UniProt O75678); chain MAALFQEASSCPVCSDYLEKPMSLECGCAVCLKCINSLQKEPHGEDLLCCCSSMVSRKNKIRR
# B6: RNF14 RING domain (UniProt Q9UBS8); chain IKCFNSKLFLCSICFCEKLGSECMYFLECRHVYCKACLKDYFEIQIRDGQVQCLNCPEPKCPSVATPGQVK
# B7: TRIM3 RING domain (UniProt O75382); chain VQPMDKQFLVCSICLDRYQCPKVLPCLHTFCERCLQNYIPAQSLTLSCPVCRQTSILPEQGV
# B8: RNF4 RING domain (UniProt P78317); chain TGLRPSGTVSCPICMDGYSEIVQNGRLIVSTECGHVFCSQCLRDSLKNANTCPTCRKKINHKRYHP
# B9: NSMCE1 RING domain (UniProt Q8WV22); chain RETYPDAVKICNICHSLLIQGQSCETCGIRMHLPCVAKYFQSNAEPRCPHCNDYWPHEIPKV
Molecule,lacZ reporter activity
B1 (PEX2 RING domain),0
B2 (TRIM52 RING domain),0
B3 (RNF175 RING domain),0
B4 (PHF7 RING domain),0
B5 (RFPL2 RING domain),0
MANWVFCNRCFQPPHRTSCFSLTNCGHVYCDACLGKGKKNECLICKAPCRTVLLSK (RNF212 RING domain (UniProt Q495C1)),0
B6 (RNF14 RING domain),0
B7 (TRIM3 RING domain),0
B8 (RNF4 RING domain),0
B9 (NSMCE1 RING domain),0
LKQVSIRENCCSLCCDEVADTQLKPCGHSDLCMDCALQLETCPLCRKEIVSRIRQI (RSPRY1 RING domain (UniProt Q96DX4)),0
ISNDSETLEECMVCSDMKRDTLFGPCGHIATCSLCSPRVKKCLICKEQVQSRTKIE (MIB1 RING domain (UniProt Q86YT6)),0

# Further values, each from its own experiment — starting sequence: viral docking peptide; KGVKRKLFAEDSS
Change,target,assay,test system,setting,scale,measurement,value
KGVKRKLFAEISS [D11I],"CCNE1, cyclin fold, Cln2 fusion (human)","yeast growth competition, sequencing",yeast,strong parent motif,"baseline: not given, higher = stronger binding",normalised enrichment score,6.68

# A few entries again (sample 3):
Molecule,lacZ reporter activity
B5 (RFPL2 RING domain),0
MANWVFCNRCFQPPHRTSCFSLTNCGHVYCDACLGKGKKNECLICKAPCRTVLLSK (RNF212 RING domain (UniProt Q495C1)),0
